Measured values gathered from unrelated publications.
Each line is one published result; not all experiments were run side by side. “And” joins repeats or separate records; there may be more than shown. Numbers after ± are the reported error.
Cell line: MDA-MB-231

SMILES | test | conditions | scale | measurement | result
C[C@@H]1CC[C@@H]([C@](O)(COCc2ccccc2)Cn2cnc3ccccc32)[C@H](OCc2ccccc2)C1 | cell growth or viability, MTT | 30 µM, 72 h | – | inhibition | 95.9%
CCCc1cc2cc(-n3nc(C(F)(F)F)c4c3CC(C)(C)CC4=O)cc(N3CCC(O)CC3)c2c(=O)[nH]1 | Western blot | concentration not given, 24 h | – | c-Src level | no effect
CC(=O)[O][Pd][c]1ccccc1-n1nc(C)cc1C.CC(=O)[O][Pd][c]1ccccc1-n1nc(C)cc1C | PI flow cytometry | 25 µM, 24 h | – | G1 phase cells | 50 ± 2.97%
CCCNC(=O)[C@H]1O[C@@H]1C(=O)N[C@H](C(=O)N1CCC[C@H]1C(=O)OCC1=C2C(C)=CC(C)=[N+]2[B-](F)(F)n2c(C)cc(C)c21)[C@@H](C)CC | cell viability, MTT | concentration not given, 4 h, irradiated 15 min up to 470 nm | – | EC50 | > 50 µM
Oc1cccc(-c2cccc(O)n2)n1.[Cl-].[Cl-].[Ru+2].c1ccc(-c2ccnc3c2ccc2c(-c4ccccc4)ccnc23)cc1.c1ccc(-c2ccnc3c2ccc2c(-c4ccccc4)ccnc23)cc1 | cell growth or viability | dark | – | EC50 | 10 µM
CC(C)c1ccc(N(C)c2ccc3c(c2)OCC[C@H]3CNc2cnccc2C(=O)O)cc1 | flow cytometry, propidium iodide | 0.01 µM, 24 h | – | S-phase cells | 33%
COc1ccc(CNC[C@@](O)(COCc2ccccc2)[C@@H]2CC[C@@H](C)C[C@H]2OCc2ccccc2)cc1 | cell growth or viability, MTT | 30 µM, 72 h | – | inhibition | 96.6%
COc1ccccc1-c1ccncc1C(=O)Nc1nnc(OCc2ccc(Cl)cc2)s1 | – | 3 µM | – | colony count | 22 and 33.5
CC(=O)OC[C@H]1O[C@@H](n2cc(CSc3nc4ccccc4n3Cc3cn([C@@H]4O[C@H](COC(C)=O)[C@@H](OC(C)=O)C(OC(C)=O)[C@H]4OC(C)=O)nn3)nn2)[C@H](OC(C)=O)C(OC(C)=O)[C@@H]1OC(C)=O (stereo in doubt) | MTT | 62.5 ppm | – | cytotoxicity | 90.6%
C[C@@H]1CC[C@@H]([C@@](O)(CNCc2cccc(F)c2)COCc2ccccc2)[C@H](OCc2ccccc2)C1 | cell growth or viability, MTT | 10 µM, 72 h | – | inhibition | 93.7%
CCCNC(=O)[C@H]1O[C@@H]1C(=O)N[C@H](C(=O)N1CCC[C@H]1C(=O)OCC1=C2C(C)=CC(C)=[N+]2[B-](C)(C)n2c(C)cc(C)c21)[C@@H](C)CC | MTT | 10 µM, 4 h, irradiated 460-470 nm, 1 min | reference: DMSO | viability | ~40%
CCc1c(C)c2ccc(OC(C)C)c(C)c2oc1=O | cell growth or viability, MTT | 250 µg/mL | – | viability | 6.84%
CC[C@H](C)/C=C/C=C/C=C/C(O)=C/C(=O)C(F)(F)F | wound healing | 1 µM, 24 h | reference: DMSO | cell migration | 80 ± 5%
C[C@@H]1CC[C@@H]([C@@](O)(CNCc2ccccc2F)COCc2ccccc2)[C@H](OCc2ccccc2)C1 | cell growth or viability, MTT | 10 µM, 72 h | – | inhibition | 83.8%
COc1c(C)c(O)c(C(=O)C=Cc2ccccc2)c(OC)c1C | – | – | reference: CL over MDA-MB-231 | selectivity index | 0.97
C[C@@H]1CC[C@@H]([C@@](O)(CNCc2ccc(F)cc2)COCc2ccccc2)[C@H](OCc2ccccc2)C1 | cell growth or viability, MTT | 30 µM, 72 h | – | inhibition | 98.4%
CCCNC(=O)[C@H]1O[C@@H]1C(=O)N[C@H](C(=O)N1CCC[C@H]1C(=O)OCC1=C2C(C)=CC(C)=[N+]2[B-](CC)(CC)n2c(C)cc(C)c21)[C@@H](C)CC | cell viability, MTT | concentration not given, 4 h, irradiated 15 min up to 470 nm | – | EC50 | > 50 µM

Excerpt of the above:
SMILES | test | conditions | scale | measurement | result
CC(=O)[O][Pd][c]1ccccc1-n1nc(C)cc1C.CC(=O)[O][Pd][c]1ccccc1-n1nc(C)cc1C | PI flow cytometry | 25 µM, 24 h | – | G1 phase cells | 50 ± 2.97%
C[C@@H]1CC[C@@H]([C@@](O)(CNCc2cccc(F)c2)COCc2ccccc2)[C@H](OCc2ccccc2)C1 | cell growth or viability, MTT | 10 µM, 72 h | – | inhibition | 93.7%
CCCNC(=O)[C@H]1O[C@@H]1C(=O)N[C@H](C(=O)N1CCC[C@H]1C(=O)OCC1=C2C(C)=CC(C)=[N+]2[B-](CC)(CC)n2c(C)cc(C)c21)[C@@H](C)CC | cell viability, MTT | concentration not given, 4 h, irradiated 15 min up to 470 nm | – | EC50 | > 50 µM
